Results from different studies.
Parts stem from different laboratories: compare values within a part only. Changes are numbered by the printed parent chain.

Study 1 — method: DHFR PCA, deep sequencing; sample: yeast; together with: (+)-ABA 0 µM; relative to: wild-type fitted maximum; direction: higher = stronger binding
Target: ABI1, truncated, D143A, DHFR fusion (Arabidopsis thaliana)
Setting: methotrexate growth selection, single substitutions
Parent: PYL1, truncated, DHFR fusion (Arabidopsis thaliana); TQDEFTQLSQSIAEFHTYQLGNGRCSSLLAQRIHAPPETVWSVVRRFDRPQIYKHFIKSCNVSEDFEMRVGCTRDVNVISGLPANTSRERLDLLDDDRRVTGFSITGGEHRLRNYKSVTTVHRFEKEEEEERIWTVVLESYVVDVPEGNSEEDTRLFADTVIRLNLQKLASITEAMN
Change	relative binding score [%]
S117L	2.72
H16E	2.73
S26L	0.605
G148S	-4.34
L20T	49.5
V62Q	-2.06
D3K	17.1
R90G	2.32
D153W	-1.43
D159W	-6.58
L29N	-2.79
A35S	1.84
G81P	28.8
R45G	-3.75
L138R	-0.0536

Study 2 — target: CCNB3, cyclin fold, Cln2 fusion (human); method: yeast growth competition, sequencing; sample: yeast; setting: strong parent motif; relative to: not given; direction: higher = stronger binding
Parent: E2F1 docking peptide (human); PPVKRRLDFETDH; partner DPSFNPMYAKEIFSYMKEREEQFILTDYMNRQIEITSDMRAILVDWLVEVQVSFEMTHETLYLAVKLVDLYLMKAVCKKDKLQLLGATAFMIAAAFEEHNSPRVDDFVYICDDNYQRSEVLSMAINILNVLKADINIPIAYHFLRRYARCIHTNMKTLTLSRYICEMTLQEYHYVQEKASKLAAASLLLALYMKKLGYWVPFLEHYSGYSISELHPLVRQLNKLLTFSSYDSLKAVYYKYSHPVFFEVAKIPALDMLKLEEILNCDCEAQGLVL
Change	normalised enrichment score
PPVWRRLDFETDH [K4W]	2.24
PPVKRRADFETDH [L7A]	0.318
PPVKRRHDFETDH [L7H]	0.0466
PPVKRILDFETDH [R6I]	2.46
PPVKRRLDFETHH [D12H]	2.98
PPVKRRLDHETDH [F9H]	0.0227
PPVKRLLDFETDH [R6L]	1.44
PPVKRSLDFETDH [R6S]	1.3
PPVKRRLIFETDH [D8I]	2.68
PPVKRRLDFETYH [D12Y]	3.29
PPVKRRLDFEIDH [T11I]	2.8
PPVKRRLDFEWDH [T11W]	2.26
PPVKPRLDFETDH [R5P]	-0.0456
PGVKRRLDFETDH [P2G]	2.34
PPVKRRLWFETDH [D8W]	1.15
PPVKGRLDFETDH [R5G]	0.189
PPVKRRLDFEPDH [T11P]	2.64
PPVKRRPDFETDH [L7P]	-0.0944
PPVKRRLVFETDH [D8V]	2.64
PPVKRRLYFETDH [D8Y]	2.16
PPVKARLDFETDH [R5A]	0.326
PPPKRRLDFETDH [V3P]	0.977
PPVKRRLDFETSH [D12S]	3.06
PPVKTRLDFETDH [R5T]	0.405
PPVLRRLDFETDH [K4L]	0.763

Study 3 — method: RNA Bind-n-Seq; form: RNA; sample: in vitro; concentration: 1 µM; setting: whole 134-nt RNA, ends assumed; together with: 150 mM KCl; relative to: input library; direction: higher = stronger binding
Target: Ras GTPase-activating protein-binding protein 1, C-terminal RGG region (G3BP1, Homo sapiens, UniProt Q13283)
UniProt Q13283, sequence (whole entry, looked up): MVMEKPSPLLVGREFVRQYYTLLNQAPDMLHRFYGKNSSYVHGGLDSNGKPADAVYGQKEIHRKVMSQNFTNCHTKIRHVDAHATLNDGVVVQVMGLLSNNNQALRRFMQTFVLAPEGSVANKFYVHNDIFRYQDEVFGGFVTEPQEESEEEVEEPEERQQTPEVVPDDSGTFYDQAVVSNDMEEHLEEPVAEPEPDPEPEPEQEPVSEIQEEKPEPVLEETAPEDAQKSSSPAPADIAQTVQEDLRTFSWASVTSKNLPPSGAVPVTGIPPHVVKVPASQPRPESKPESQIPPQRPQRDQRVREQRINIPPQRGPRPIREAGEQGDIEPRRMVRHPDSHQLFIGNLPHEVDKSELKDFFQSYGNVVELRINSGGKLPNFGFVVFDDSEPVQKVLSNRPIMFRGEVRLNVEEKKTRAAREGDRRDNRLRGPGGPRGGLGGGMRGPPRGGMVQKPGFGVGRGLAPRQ
Sequence	log2 enrichment
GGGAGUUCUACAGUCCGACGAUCCUCAAGUCCUGUGCUACACAUCGUAUGUACCGAAUCGGGUUGGUUGGGUUGGGAAAGUAUUAUGUUACGCCGUUCGGAUCUGCACUUCCAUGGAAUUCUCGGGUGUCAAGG	0.369
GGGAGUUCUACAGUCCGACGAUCGUCCUGUGCUACACAUCGUAUGUACCGAAUCGGGGUGGGGUUUUUGGGGUUUUUGGGGAAAGUAUUAUGUUACGCCGUUCGGAUCUGCACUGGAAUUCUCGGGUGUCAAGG	1.04
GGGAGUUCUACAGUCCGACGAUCCUCAAGUCCUGUGCUACACAUCGUAUGUACCGAAUCGGGGCCGGCCGGCCGGGGAAAGUAUUAUGUUACGCCGUUCGGAUCUGCACUUCCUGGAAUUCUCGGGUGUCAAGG	-0.927
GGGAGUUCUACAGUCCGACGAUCUGGGAGGUGGAUUUUGUUUAUUUUUUUAGCUCAUUUCCAGGGGUAGGAAUUUUUUUUUAAUAUGUGUCAUGAAUAAAGUUGUUUUUGAAAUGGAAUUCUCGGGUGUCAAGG	2.69
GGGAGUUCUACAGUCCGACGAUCCAAGUCCUGUGCUACACAUCGUAUGUACCGAAUCGGGGAAAGGGAAAGGGAAAGGAAAGUAUUAUGUUACGCCGUUCGGAUCUGCACUUCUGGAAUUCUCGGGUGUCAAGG	-1.13
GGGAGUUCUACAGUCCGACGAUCGUCCUGUGCUACACAUCGUAUGUACCGAAUCGGGUUUGGGAAAAAAAGGGAAAAAGGGAAAGUAUUAUGUUACGCCGUUCGGAUCUGCACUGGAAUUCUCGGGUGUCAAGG	0.0626
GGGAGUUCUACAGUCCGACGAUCGCAGGAUGUAAAAACAAAUGGAAAUGCUUCGGAUAGUGGCAGGGGUGGGGGUUGCUAAGGAAAGGGUGGGAUGGGAGUGGGUAAAGAGUUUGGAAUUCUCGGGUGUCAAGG	1.94
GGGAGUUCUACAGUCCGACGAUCCACAGACAACACGCACCCACACAGACACAGAGGGAAGGGGUUGGGAUGGGGACAGGGUGCACAGCAGAAAGGGGUAGGACCCCAGCCCCUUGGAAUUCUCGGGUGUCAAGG	-0.326
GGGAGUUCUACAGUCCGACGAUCUCAAGUCCUGUGCUACACAUCGUAUGUACCGAAUCGGAAAAAAAGGAAAGGAGGAAAGUAUUAUGUUACGCCGUUCGGAUCUGCACUUCCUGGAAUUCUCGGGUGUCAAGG	-1.34
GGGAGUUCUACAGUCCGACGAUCGCAGGAAGUAAAAACAAAUGGAAAUGCUUCGGAUAGUGGCAGGGGUGGGGGUUGCUAAGGAAAGGCUGGGAUGGGAGUGGGUAAAGAGUUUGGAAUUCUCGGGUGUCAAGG	1.54
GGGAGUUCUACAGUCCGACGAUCCACAGACAAUACGCACCCACACAGACACAGAGGGAAGGGGUUGGGAUGGGGACAGGGUGCACAGCAGGGCGGGGUAGGACCCCAGCCCCUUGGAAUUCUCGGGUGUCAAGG	-0.191
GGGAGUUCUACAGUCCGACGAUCCUCAAGUCCUGUGCUACACAUCGUAUGUACCGAAUCGGAAAAAGGUGGUUUGGAAAGUAUUAUGUUACGCCGUUCGGAUCUGCACUUCCAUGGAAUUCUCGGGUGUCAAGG	-1.18
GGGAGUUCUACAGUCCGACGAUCCUCAAGUCCUGUGCUACACAUCGUAUGUACCGAAUCGGUGGAAAAAAAGGAGGAAAGUAUUAUGUUACGCCGUUCGGAUCUGCACUUCCAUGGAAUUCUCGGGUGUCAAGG	-1.2
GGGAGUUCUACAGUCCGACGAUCCCUGUGCUACACAUCGUAUGUACCGAAUCGGGGAAAAAAAGGGGAAAAAAAGGGGAGGGGAAAGUAUUAUGUUACGCCGUUCGGAUCUGCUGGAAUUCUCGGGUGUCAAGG	0.44

Study 4 — target: CREB3, bZIP domain (human); method: DHFR protein complementation; sample: yeast; relative to: wild-type JUN-FOS pair; direction: higher = stronger binding
Setting: single substitutions, most at no-binding floor
Parent: JUN, bZIP domain (human); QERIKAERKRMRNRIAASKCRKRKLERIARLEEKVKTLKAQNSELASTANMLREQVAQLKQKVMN; partner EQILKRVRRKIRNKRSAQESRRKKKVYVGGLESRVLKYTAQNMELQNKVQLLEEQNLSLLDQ
Change	binding fitness [natural log]
V56G	-1.47
A29G	-1.51
R30V	-1.38
Q55G	-1.52
K34P	-1.53
L52K	-1.57
T48M	-1.27
V35E	-1.41
S47H	-1.35
A29D	-1.18
A57N	-1.64
T37V	-1.42
A49N	-1.5
Q55M	-1.45
V35A	-1.49
I28A	-1.47
L59T	-1.58
R53S	-1.38
A40T	-1.23
A57P	-1.51
L38Q	-1.46
A46D	-1.51
